Measurements collected from several papers.
Compare with care: the assays were run in different laboratories.
MAPK14: Mitogen-activated protein kinase 14 (MAPK14, Homo sapiens, UniProt Q16539)
Sequence of UniProt Q16539 (whole entry, unmodified, looked up): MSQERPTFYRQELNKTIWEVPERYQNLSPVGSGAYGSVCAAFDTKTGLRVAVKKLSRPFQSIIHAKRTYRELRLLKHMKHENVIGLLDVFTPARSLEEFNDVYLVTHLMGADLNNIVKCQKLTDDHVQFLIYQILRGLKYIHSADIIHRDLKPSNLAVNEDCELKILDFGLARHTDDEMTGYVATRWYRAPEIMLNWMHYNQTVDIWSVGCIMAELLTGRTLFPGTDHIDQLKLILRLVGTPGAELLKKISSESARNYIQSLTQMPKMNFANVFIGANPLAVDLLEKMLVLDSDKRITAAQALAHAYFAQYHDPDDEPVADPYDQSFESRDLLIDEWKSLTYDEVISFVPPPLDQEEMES
MAPK14 T106M: Mitogen-activated protein kinase 14 (MAPK14, Homo sapiens, UniProt Q16539, T106M)

SMILES	target	test	system	conditions	scale	endpoint	value
O=C(Nc1nc2n(n1)C(c1ccc(F)cc1)C=C(c1ccccc1)N2)c1cccc([N+](=O)[O-])c1 (stereo not drawn)	MAPK14	enzyme activity, inhibitor, TR-FRET	–	up to 30 µM	–	inhibition	no inhibition
Cn1cc(-c2ccnc3ccccc23)c(-c2ccccn2)n1	MAPK14	enzyme activity	–	–	baseline: LY selectivity Yck2 over MAPK14	selectivity improvement	2 fold
c1cnc2ccc(Nc3nc(NC4CC4)c4nc[nH]c4n3)cc2c1	MAPK14	kinase activity, inhibitor, SelectScreen kinase profiling	–	1 µM	baseline: control	remaining activity	115%
CNc1ncc2c(/C=C/C(=O)N3CCC(OC)CC3)nn(Cc3cccc(C(F)(F)F)c3)c2n1	MAPK14	kinase activity, inhibitor	–	1 µM	baseline: untreated control	remaining activity	89%
N#Cc1ccc2c(-c3ccncc3)c(-c3ccc(F)cc3)nn2c1	MAPK14	inhibitor, NanoBRET	HEK293	1.0 µM	–	target occupancy	> 70%
C[C@@H](c1ccc(-n2cnc3c(N)ncnc32)cc1)N1CCc2nn(C)c(Cc3ccccc3)c2C1=O	MAPK14	KINOMEscan	–	0.1 µM	baseline: DMSO control	remaining binding	98%
Oc1ccc(-c2nc(-c3ccncc3)c(-c3ccc(F)cc3)[nH]2)cc1	MAPK14	kinase activity, Kinase-Glo	–	concentration not given	–	normalized luminescence	1.06
[2H]c1cc(C)c(NC(=O)c2cnc(Nc3cc(N4CCC(O)CC4)nc(C)n3)s2)c(Cl)c1	MAPK14	–	–	0.001 µM	–	inhibition	< 50%
CCCn1nc(C)c(-c2cc(C(=O)N3CCc4nc5cc(-c6ccccc6)[nH]n5c(=O)c4C3)[nH]n2)c1C	MAPK14	kinase activity, LanthaScreen TR-FRET	–	SB202190 287.5 µM as -100%	baseline: DMSO control	efficacy	-48.1%
COc1cc(F)ccc1-c1ncnc(Nc2cccc(C[S@](C)(=N)=O)c2)n1	MAPK14	kinase activity	–	10 µM, with: 10 µM ATP	–	remaining activity	97%
Cc1noc(C)c1Cc1ccc(C(=O)N2CCc3c(nc4cc(-c5ccccc5)[nH]n4c3=O)C2)o1	MAPK14	kinase activity, LanthaScreen TR-FRET	–	SB202190 287.5 µM as -100%	baseline: DMSO control	efficacy	-89.5%
CCCOc1ccc(OC)c(F)c1C(=O)c1ccc(C(=O)N[C@@H]2CNC[C@H]2NC(=O)c2ccc3[nH]ncc3c2)cc1	MAPK14 T106M	enzyme activity	–	10 µM	–	remaining activity	91%
CCc1ccc(NC(=O)CSc2nc(-c3cccc(OC)c3)nc3c2Cc2c(CO)cnc(C)c2O3)cc1	MAPK14	kinase activity, LanthaScreen TR-FRET	–	SB202190 287.5 µM as -100%	baseline: DMSO control	efficacy	-16.9%
COc1cc(-c2cncc3c2CN(C)Cc2cc(N4CCNCC4)ccc2-3)cc(OC)c1OC	MAPK14 T106M	kinase activity	–	1 µM, with: ATP 10 µM	baseline: DMSO control	remaining activity	93%
CCN(CC)c1ccc(C2=NNC(=O)CC2C)cc1[N+](=O)[O-] (stereo not drawn)	MAPK14	enzyme activity, inhibitor	–	10 µM	baseline: vehicle	remaining activity	97%

A few entries again:
SMILES	target	test	system	conditions	scale	endpoint	value
CCN(CC)c1ccc(C2=NNC(=O)CC2C)cc1[N+](=O)[O-] (stereo not drawn)	MAPK14	enzyme activity, inhibitor	–	10 µM	baseline: vehicle	remaining activity	97%
Oc1ccc(-c2nc(-c3ccncc3)c(-c3ccc(F)cc3)[nH]2)cc1	MAPK14	kinase activity, Kinase-Glo	–	concentration not given	–	normalized luminescence	1.06
